Measured values of several laboratories.
Each numbered part is a random draw from the data of one study; scales do not carry over between parts.

Series 1 — method: competition protein-binding microarray; molecule type: double-stranded DNA, one strand shown; sample: in vitro; concentration: 2 µM; with: Cbf1 competitor, 0.05 µM; direction: higher = stronger binding; shared flanks, not repeated: … GTCTTGATTCGCTTGACGCTGCTG
Target: Phosphate system positive regulatory protein PHO4, full length, GST-tagged (PHO4, Saccharomyces cerevisiae, UniProt P07270, residues 1-312)
Notes: whole 60-bp probe, lowest competitor level
Residues (chain): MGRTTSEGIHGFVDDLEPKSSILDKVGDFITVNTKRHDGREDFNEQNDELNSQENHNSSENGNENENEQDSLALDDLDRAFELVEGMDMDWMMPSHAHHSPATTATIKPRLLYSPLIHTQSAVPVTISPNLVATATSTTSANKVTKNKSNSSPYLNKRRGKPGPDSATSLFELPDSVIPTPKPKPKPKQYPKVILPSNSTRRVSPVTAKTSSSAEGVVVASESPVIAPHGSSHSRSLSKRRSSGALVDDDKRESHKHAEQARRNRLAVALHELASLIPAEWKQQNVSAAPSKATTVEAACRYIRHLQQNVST
The fluorescence intensity of `GGTTTTGTAGGACTAGGTGTGATGAGTGGTGGCTTT` is reported as 5480 a.u.
`TGGTAGTAACCAAAGCACGCTTGTCCTTGTGTTCGG` gave a fluorescence intensity of 8800 a.u.
The fluorescence intensity of `GTCTTGTCTCATTGGCAAGTGGGTGTCCCCACTTCA` is reported as 4920 a.u.
The fluorescence intensity of `TGTCCCTCTATTAACACCGTGATGGTCAAATCAAAC` is reported as 6410 a.u.
`ACTCGCATGTTACCGTCCGTGACGGACTCCTTTGTG` has a fluorescence intensity of 5690 a.u.
`CGTCCTAGTGATTGCGGGGTGGGTGCCATGAGGAAG` gave a fluorescence intensity of 6990 a.u.

Series 2 — method: universal PBM; molecule type: double-stranded DNA, one strand shown; sample: in vitro; concentration: not given; direction: higher = stronger binding
Target: Sal-like protein 4, full length isoform B (SALL4, Homo sapiens, UniProt Q9UJQ4-2, residues 1-616)
Notes: 8-mer, flanks averaged, mean of replicates
Residues (chain): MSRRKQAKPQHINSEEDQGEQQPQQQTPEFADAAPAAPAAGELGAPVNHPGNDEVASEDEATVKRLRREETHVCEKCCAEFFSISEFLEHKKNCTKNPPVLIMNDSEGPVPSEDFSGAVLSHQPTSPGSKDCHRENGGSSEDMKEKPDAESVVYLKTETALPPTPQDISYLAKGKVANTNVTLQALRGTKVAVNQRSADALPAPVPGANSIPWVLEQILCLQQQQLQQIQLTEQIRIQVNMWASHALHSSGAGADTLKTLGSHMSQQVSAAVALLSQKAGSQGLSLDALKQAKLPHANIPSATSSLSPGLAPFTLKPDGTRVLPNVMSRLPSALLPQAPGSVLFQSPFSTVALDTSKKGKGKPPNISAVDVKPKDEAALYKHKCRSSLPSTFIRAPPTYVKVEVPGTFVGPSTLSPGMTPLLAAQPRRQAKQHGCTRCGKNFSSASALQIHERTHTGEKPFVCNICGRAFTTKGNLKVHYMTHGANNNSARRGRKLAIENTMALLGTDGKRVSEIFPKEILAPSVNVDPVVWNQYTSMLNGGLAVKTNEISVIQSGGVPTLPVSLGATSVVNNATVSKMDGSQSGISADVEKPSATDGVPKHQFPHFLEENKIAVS
With `GTGCCCTA` the E-score was -0.168.
`AGGTACGG` gave an E-score of -0.291.
The E-score of `ACGCCGCG` is reported as -0.224.
For `GTTTCGTA`, the E-score was 0.132.
For `CCTGCGAC`, the E-score was -0.217.
For `ACGCCCGT`, the E-score was -0.107.

Series 3 — method: protein binding microarray; molecule type: double-stranded DNA, one strand shown; sample: in vitro; concentration: not given; reference: not given; direction: higher = stronger binding
Target: Histone acetyltransferase KAT6A, winged helix 1, GST fusion (KAT6A, Homo sapiens, UniProt Q92794, residues 1-85)
Notes: 8-mer, flanks averaged, mean of 2 arrays, mostly near background
Residues (chain): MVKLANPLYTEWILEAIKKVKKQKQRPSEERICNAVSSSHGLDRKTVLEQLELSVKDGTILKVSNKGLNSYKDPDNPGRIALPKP
With `AAGCACCC` the E-score was -0.0692.
`GCACTGCC` has an E-score of 0.182.
The E-score of `CTTGAATC` is reported as -0.204.
For `AGGCGTTG`, the E-score was 0.14.
With `AATATCCC` the E-score was 0.0253.

Other studies, line by line
`PhoQ, residues 284 288 289 292 302 303 SMMNNA` has a fold induction of 9.12 (PhoP, residues 12 14 15 18 19 LYFRQ (Escherichia coli, UniProt P23836); Sort-seq, item: YFP reporter; E. coli; PhoQ-PhoP variant library, with: 10 µM Mg2+; reference: high Mg2+ state, higher = stronger signaling).

For quick reference, copied from above (series 1):
`ACTCGCATGTTACCGTCCGTGACGGACTCCTTTGTG` has a fluorescence intensity of 5690 a.u.
`CGTCCTAGTGATTGCGGGGTGGGTGCCATGAGGAAG` gave a fluorescence intensity of 6990 a.u.
